Published values pooled from the literature.
Each numbered part is a random draw from the data of one study; scales do not carry over between parts. Substitutions count along the parent as printed.

Block 1
Target: FOSL2, bZIP domain (human)
Method: DHFR protein complementation
Sample: yeast
Notes: single substitutions, most at no-binding floor
Reference: wild-type JUN-FOS pair
Reading: higher = stronger binding
Parent: JUN, bZIP domain (human); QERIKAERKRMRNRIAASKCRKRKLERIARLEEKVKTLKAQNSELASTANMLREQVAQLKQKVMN; partner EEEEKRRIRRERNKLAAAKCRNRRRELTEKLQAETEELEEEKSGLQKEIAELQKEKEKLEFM
Variant | binding fitness [natural log]
A40N | 0.0868
L45T | -1.24
K39P | -1.05
N42C | 0.154
A40S | 0.0652
T48W | -0.0584
Q55L | -0.0691
L38Q | -0.123
R53L | -0.435
R53H | -0.334
V56Q | -0.97
E44T | -0.0956
M51N | 0.0779
S47K | 0.212
V56M | -0.38
R30S | 0.203
S47P | -0.934
Q55M | -0.0116
K34S | -0.0033
A40D | 0.091

Block 2
Target: RNA binding protein fox-1 homolog 2, RRM domain, GST-SBP tag (RBFOX2, Homo sapiens, UniProt O43251-10, residues 100-194)
Method: RNA Bind-n-Seq
Form: RNA
Sample: in vitro
Tested at: 365 nM
Notes: natural RNA segment, single round, ends assumed
Reference: no-protein control
Reading: higher = stronger binding
Constant ends, left off below: GGGAGUUCUACAGUCCGACGAUC … UGGAAUUCUCGGGUGCCAA
Target sequence (chain): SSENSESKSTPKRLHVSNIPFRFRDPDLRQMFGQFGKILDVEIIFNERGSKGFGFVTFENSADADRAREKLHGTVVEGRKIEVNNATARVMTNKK
Strand | RBNS enrichment (R)
UGGGCUAGAGGUGGGAAGCUUGAGUGUUUAAUAAAAUGAGGCUUUUGGAAAGAAAGAUGAAAACGUAGAAUGUAGUGCUAAGAACGUUUCCCGUUCUCUCAUGCCUUCGC | 1.76
GAUGUUGGGAAUGGACUGGGUUUUAAAAGGGAGCUUGAAGAGGGAAUGUUUGACAGUCACAGAAGGUUCCUGCAGCAGAUGCCUCUUUUAGCCAUUUCUCAUUUUUUUCC | 0.584
CUGCAGAGUCCUUUUCAUGACCUAGGAGGUCUUAUUCAAAGCCCUCAUUGACAGAGGAGGAAACAGGCCAAGGCAGGACAUGGCUGGACCAUGGUGAUACAGCUCUGUGU | 0.335
UCCAAAAAAUGACCGUGAGGGGCCUCAGUGAGACCAGAUUGUGUCAUUUGGCUCCACCUUCAUCUUGCAGAGCCAGCUGAUCUCAGAUUGCCAAGAAACUAGAAGCCACU | 0.282
AACUCUCUUAUUCUGCCGCCACAAUGCAAGCAUAGUUUGAUGUUUUCGUUAUUGCCUUUUUUGAGAUGUAUGUAUCUGUAUCUACCUAUAUCUAUAUGUGUGUAUACAUA | 0.802
AUUUAUUUCUAGAACUCACUAUCAGUGAGCAGUGCCAGAGUGUUUUCUCUUUGACCUAGAGGUUUCACAUCAUAGCAAGGAGGGAAAAGUCUCCCCAUCUCCUUACAACU | 0.226
UACCAGUGAGCUCUGUUGUACCAAGACCAGGUCUUCAGAGCAUCUGAACCACUGUGGCCUUCUCUUCUCAGCCUUCACUGUGACACGGGGGACAUUGAGUGACAAGCCUC | 0.297
UGGGCUGGGUUUGUUUACUCCAACUUCCCUUCUACACCCCUCCUGCAGGACAGUACGAUUUGGGGAGAACCCAGCUCCCCACUUUAUCUGCAGACUCUGGGACCUGACAA | 0.587

Block 3
Target: Sal-like protein 4, full length isoform B (SALL4, Homo sapiens, UniProt Q9UJQ4-2, residues 1-616)
Method: universal PBM
Form: double-stranded DNA, one strand shown
Sample: in vitro
Tested at: not given
Notes: 8-mer, flanks averaged, mean of replicates
Reading: higher = stronger binding
Strand | E-score
CGGCGTAG | -0.144
CCATGTTC | -0.0493
AATATAAG | 0.39
ACTCCTGC | 0.0346
CGGTGTTC | -0.225
CTAGTGAA | -0.104
ATATGCTC | 0.204
GCATCGTA | -0.0873
AAGACTCT | 0.0123
ATTTCTCA | 0.199
CAGTGGGG | -0.361
AGACCCCC | -0.314
GGGGAGTA | -0.128
AGTAGATA | 0.318
GTAAGGGA | -0.0711
AACGGGAC | -0.292
AGCCCGGC | -0.359
AAGGAAGG | -0.0658
CTAACCAG | -0.0406
AAATAGGA | 0.194
GATGACGC | -0.143
ACTACAAT | 0.195
ACGAAGCG | -0.202
ACAGGGGT | -0.114
GAAGGACC | -0.18

Block 4
Target: Histone acetyltransferase KAT6A, both winged helices, GST fusion (KAT6A, Homo sapiens, UniProt Q92794, residues 1-181)
Method: protein binding microarray
Form: double-stranded DNA, one strand shown
Sample: in vitro
Tested at: not given
Notes: 8-mer, flanks averaged, mean of 2 arrays, mostly near background
Reference: not given
Reading: higher = stronger binding
Construct (chain): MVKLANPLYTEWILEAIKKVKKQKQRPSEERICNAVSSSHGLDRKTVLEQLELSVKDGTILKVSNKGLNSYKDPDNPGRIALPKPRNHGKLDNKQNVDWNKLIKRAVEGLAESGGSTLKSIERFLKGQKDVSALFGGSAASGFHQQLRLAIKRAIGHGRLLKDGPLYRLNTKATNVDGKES
Strand | E-score
CAAGCCCA | -0.181
CCGTCGGC | 0.42
CCCCTGAA | -0.117
CCTCACTA | -0.212
GTTTTCTA | 0.0111
TCAATACA | -0.173
CTCAAGGC | -0.171
GCATACCA | -0.104
ACCTCGAT | -0.0997
GGAAGTAC | 0.137
AATCGGTA | 0.0891
GCAGAGAC | -0.0423
CTGCATCC | -0.13
ACAACCAT | -0.0688
CACCCTCG | -0.164
AGCGTAAC | 0.095
GTCTTCTA | -0.0992
CCGTAGAG | 0.136
CCGGGGAC | 0.0659
CGTGTGAA | -0.00758
GGGTCACA | -0.184
AACGGCCG | 0.341
TGTTATAA | -0.00885
ATTGATAA | -0.218
AATCGTTG | -0.113

Block 5
Target: CCNE2, cyclin fold, Cln2 fusion (human)
Method: yeast growth competition, sequencing
Sample: yeast
Notes: weak parent motif
Reference: not given
Reading: higher = stronger binding
Parent: PKN2 docking peptide (human); VSAVQKLDFSDTM; partner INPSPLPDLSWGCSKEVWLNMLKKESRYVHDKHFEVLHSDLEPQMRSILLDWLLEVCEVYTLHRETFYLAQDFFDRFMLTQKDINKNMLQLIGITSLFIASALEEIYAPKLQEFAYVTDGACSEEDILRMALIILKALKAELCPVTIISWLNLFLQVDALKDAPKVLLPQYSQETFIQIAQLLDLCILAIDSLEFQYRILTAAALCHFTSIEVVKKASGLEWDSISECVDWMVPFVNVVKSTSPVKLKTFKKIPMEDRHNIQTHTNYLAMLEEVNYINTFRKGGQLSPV
Variant | normalised enrichment score
A3N | -0.37
F9A | -0.0526
D11L | 0.672
L7P | -0.287
V4K | -0.479
L7W | 0.504
V4S | -0.479
K6L | -0.434
V1G | 0.147
T12D | -0.165
A3T | 0.139
S10P | 0.558
S10F | 0.135
D11P | -0.00549
L7S | -0.371
L7I | -0.239
D11I | 0.11
D8M | 0.694
T12N | -0.207
V4I | -0.226
K6Q | 0.707
A3D | -0.684
V1P | -0.0918
M13P | -0.584

Some of these lines once more (block 4):
Strand | E-score
CCCCTGAA | -0.117
CCTCACTA | -0.212
GTTTTCTA | 0.0111
TCAATACA | -0.173
CTCAAGGC | -0.171
GCATACCA | -0.104
ACCTCGAT | -0.0997
GGAAGTAC | 0.137
AATCGGTA | 0.0891
GCAGAGAC | -0.0423
CTGCATCC | -0.13
ACAACCAT | -0.0688
CACCCTCG | -0.164
AGCGTAAC | 0.095
GTCTTCTA | -0.0992
CCGTAGAG | 0.136
